# Published values from different studies.
# Numbered parts are unrelated; each lists some results of a single study. Changes are numbered by the printed parent chain.

# Series 1
# Target: Ras GTPase-activating protein-binding protein 1, C-terminal RGG region (G3BP1, Homo sapiens, UniProt Q13283)
# UniProt Q13283, sequence (whole entry, looked up): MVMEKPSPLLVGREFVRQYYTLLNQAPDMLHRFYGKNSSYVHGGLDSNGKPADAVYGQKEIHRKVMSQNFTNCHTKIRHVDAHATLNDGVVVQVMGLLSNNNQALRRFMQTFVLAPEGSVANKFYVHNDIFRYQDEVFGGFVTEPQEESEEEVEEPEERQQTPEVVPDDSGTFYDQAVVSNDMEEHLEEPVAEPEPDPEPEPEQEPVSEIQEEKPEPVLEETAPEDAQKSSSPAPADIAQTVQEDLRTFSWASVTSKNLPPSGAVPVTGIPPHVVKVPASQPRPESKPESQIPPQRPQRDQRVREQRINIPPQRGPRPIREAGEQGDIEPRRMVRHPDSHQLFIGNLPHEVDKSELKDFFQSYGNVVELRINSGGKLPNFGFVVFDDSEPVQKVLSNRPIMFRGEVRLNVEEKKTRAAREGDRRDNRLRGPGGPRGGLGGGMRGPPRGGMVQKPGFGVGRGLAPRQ
# Method: RNA Bind-n-Seq
# Form: RNA
# Sample: in vitro
# Tested at: 1 µM
# Notes: whole 134-nt RNA, ends assumed
# Together with: 150 mM KCl
# Baseline: input library
# Direction: higher = stronger binding
# Constant ends, left off below: GGGAGUUCUACAGUCCGACGAUC … UGGAAUUCUCGGGUGUCAAGG
Oligonucleotide,log2 enrichment
CUCAAGUCCUGUGCUACACAUCGUAUGUACCGAAUCGGUGGGGUGGGGUGGGGAAAGUAUUAUGUUACGCCGUUCGGAUCUGCACUUCCA,1.01
UGGCCCUGGUGGCAUGCGGGGAGGAAGAGGUGGCCUCAUGGAUCGUGGUGGUCCCGGUGGAAUGUUCAGAGGUGGCCGUGGUGGAGACAG,2.48
AGUCCUGUGCUACACAUCGUAUGUACCGAAUCGGGUUUGGGAAAAAGGGUUUUUGGGAAAGUAUUAUGUUACGCCGUUCGGAUCUGCACU,1.15
CACAGACAAAAAGCACCCACACAGACACAGAGGGAAGGGGUUGGGAUGGGGACAGGGUGCACAGCAGGGCGGGGUAGGACCCCAGCCCCU,-0.28
UGGGAGGUGCAUUUUGUUUAUUUUUUUAGCUCAUUUCCAGGGGUGGGAAUUUUUUUUUAAUAUGUGUCAUGAAUAAAGUUGUUUUUGAAA,2.64
UCCUCAAGUCCUGUGCUACACAUCGUAUGUACCGAAUCGUGUGUGUGUGUGUAAAGUAUUAUGUUACGCCGUUCGGAUCUGCACUUCCAG,0.859
ACCAUGCAGGUGGGCAUCUUUGGGAAGUGGGGCAAGGGGGGGAUAGGGAGGGGGGUAACACUUUGGGAACAGGUGAAACCAGGUCGUUUC,-0.532
AAGUCCUGUGCUACACAUCGUAUGUACCGAAUCGGGUUUUUGGGAAAGGGAAAGGGAAAGUAUUAUGUUACGCCGUUCGGAUCUGCACUU,0.918

# Series 2
# Target: PABPC1L2, full length, GST fusion (mouse, UniProt A0ABA7IW68)
# Method: RNAcompete
# Form: RNA
# Sample: in vitro
# Tested at: 20 nM
# Notes: 7-mer, probes averaged, single round
# Baseline: mean of 7-mers
# Direction: higher = stronger binding
# Target sequence (chain): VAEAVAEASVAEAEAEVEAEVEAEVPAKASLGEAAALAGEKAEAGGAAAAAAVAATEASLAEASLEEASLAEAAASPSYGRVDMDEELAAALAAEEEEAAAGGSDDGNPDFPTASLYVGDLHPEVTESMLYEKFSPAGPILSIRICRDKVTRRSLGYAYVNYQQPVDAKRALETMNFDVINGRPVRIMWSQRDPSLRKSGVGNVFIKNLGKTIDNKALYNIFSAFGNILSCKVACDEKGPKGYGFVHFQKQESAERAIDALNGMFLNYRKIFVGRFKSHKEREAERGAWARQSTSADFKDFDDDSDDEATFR
Oligonucleotide,7-mer Z-score
UUCGUCU,-0.541
UUCCCUC,-0.472
GCUGCAC,-0.228
GUGCAGA,0.171
GCCCGUG,-0.258
CUGGGGA,0.271
GUCGACC,-0.0573
GCAACGC,-0.0047
UUGCCCG,-0.385
AUCCGUG,-0.235
CCCUGUG,-0.331
AGCUCCA,-0.313
CGAAUAC,-0.0047
GGAUGGC,0.329
AGACAAG,0.189
CAAUUCU,-0.132

# Series 3
# Target: Interferon regulatory factor 5, full length, phosphomimetic (IRF5, Homo sapiens, UniProt Q13568-2, residues 1-514, K96S/S451D/S453D/S456D/S462D)
# Method: protein-binding microarray
# Form: double-stranded DNA, one strand shown
# Sample: in vitro
# Tested at: 250 nM
# Notes: 60-bp whole probe
# Together with: salmon DNA 0.4 mg/ml
# Baseline: random background probes
# Direction: higher = stronger binding
# Constant ends, left off below: GCCTAGCAC … GTCTTGATTCGCTTGACGCTGCTG
Oligonucleotide,log fluorescence
TCATGTACGTCGTTTCCCACTGTGCTA,0.514 z-score
TTCGATTTCGGGACTGGATTAGTGCTA,3.4 z-score
TTAGAACCGGGGTATCGATTAGTGCTA,2.52 z-score
AACGGTTTCGGTTTCGGGACGTGCTAG,10.8 z-score
GCCGAACTGGGGTTTCGAGACGTGCTA,0.918 z-score
TTCTGAATGCCCTTCCATCACGTGCTA,-0.0838 z-score
TCAAGATTTTTTTTCCTACTGTGCTAG,0.718 z-score
GACGGTTTCCTTGCCCTGACGTGCTAG,0.288 z-score
TCAGTAATGCTTCTGTAACTGTGCTAG,0.14 z-score
TTAGGTCTCCTTCTGCTTTAGTGCTAG,-0.406 z-score
CCTTTTATGGTATTTTTTTCGTGCTAG,0.976 z-score

# Series 4
# Target: RING finger protein unkempt homolog, zinc fingers 1-6, GST-SBP tag (UNK, Homo sapiens, UniProt Q9C0B0, residues 30-357)
# UniProt Q9C0B0, sequence (30-357, looked up): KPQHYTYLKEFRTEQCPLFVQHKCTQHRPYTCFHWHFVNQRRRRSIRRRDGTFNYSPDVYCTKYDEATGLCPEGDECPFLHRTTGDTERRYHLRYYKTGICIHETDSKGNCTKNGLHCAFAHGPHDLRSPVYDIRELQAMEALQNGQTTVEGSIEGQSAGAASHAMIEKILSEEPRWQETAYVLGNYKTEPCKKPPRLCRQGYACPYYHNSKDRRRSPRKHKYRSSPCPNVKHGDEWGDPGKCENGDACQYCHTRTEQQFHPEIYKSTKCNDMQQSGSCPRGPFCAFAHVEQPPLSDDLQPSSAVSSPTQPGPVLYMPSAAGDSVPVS
# Method: RNA Bind-n-Seq
# Form: RNA
# Sample: in vitro
# Tested at: not given
# Notes: RNA with constant flanks, ends assumed
# Baseline: input RNA pool
# Direction: higher = stronger binding
# Constant ends, left off below: GGGAGUUCUACAGUCCGACGAUC … CAACAGAGGAUUGAGCAUCA
Oligonucleotide,bound/input enrichment [ratio]
AACAUAAAUUGUAUUUCCUGUUUUAAUUCCAGGGGAAGUACUGUUUGGGAAAGCUAUUAUCCGGUAAAUGUUUUACAAAUUACUGUUUCUCACUUUCAGUCAUACCCUAAUGAUCCCAGC,0.335
CUGGCUGGAGUGUAGGCUGUACCCCAUUUCCUUGGCUCCCAUUAAAAAUCAACAACAUUCUAAUGAUCCGGGAACAACAGAAGGGGAACAGUCAUAGGAUAUACGAGCAGUAUAAAGAUA,0.479
UUCUGUGCACAUCAGUUGGCUGGUGAACAAGGCUAUAUCAGACUUAUUUUCCAAGGACCUUCCGACCCGCAGCUGUCCUCCAGGACUGCAUUGUAAGUUUAUAAGCUAAGUGAUUGGGUU,0.248
UGAACUACAAAGAGUAGAAGAGCUUUAUGAUUCAUUAUUACAAGCUAUUGCCUUCUAUGAAUCCGCAGUGUUUGACUCUCAGCCUUAGAAUUCUGAGGUUAACGUGCUAAAGUAUAAUUA,0.259
GAAUCCUACUCAGGCGGAUUUUGCAACACCAAGCUCACAGCAGCAGCAUCUUAGUCACAGCCGGGCCGUUUUGGGGCUCUGUGGCCAGGGUUUUAUUCACAUGCAGGUUUGGAAAAUGUA,0.31
GGAUUUUUUUCUGUGUAAAUCAUCAAGUAUAAGAAGAAACUAUGGGACUCUGAGCCUUGCUUCCGAGAAUUUACAGUGGACAAAUAGGUGUCAUCAAACCAGUUUUUAAUCAUUCUGACU,0.281

# Series 5
# Target: ABI1, truncated, D143A, DHFR fusion (Arabidopsis thaliana, UniProt P49597)
# Method: DHFR PCA, dose-response
# Sample: yeast
# Notes: Hill fit, not affinity, not high confidence
# Together with: (+)-ABA, dose series
# Direction: lower = more sensitive
# Parent: PYL1, truncated, DHFR fusion (Arabidopsis thaliana, UniProt Q8VZS8); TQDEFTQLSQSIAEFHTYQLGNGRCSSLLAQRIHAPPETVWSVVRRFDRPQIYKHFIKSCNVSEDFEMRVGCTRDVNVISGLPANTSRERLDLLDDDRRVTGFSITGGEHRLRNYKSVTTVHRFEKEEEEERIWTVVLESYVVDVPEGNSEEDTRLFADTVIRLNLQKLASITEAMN
Variant,ABA EC50
C60H,754 µM
E89L,2.64 µM
S117E,2150 µM
F103E,4.98 µM
A158E,33.4 µM
S80M,0.693 µM
R46I,106 µM
W41S,1.95 µM
S87W,0.721 µM
S87E,328 µM
Y115T,8.88 µM

# Series 6
# Target: Phosphate system positive regulatory protein PHO4, full length, GST-tagged (PHO4, Saccharomyces cerevisiae, UniProt P07270, residues 1-312)
# Method: competition protein-binding microarray
# Form: double-stranded DNA, one strand shown
# Sample: in vitro
# Tested at: 2 µM
# Notes: whole 60-bp probe, lowest competitor level
# Together with: Cbf1 competitor, 0.05 µM
# Direction: higher = stronger binding
# Constant ends, left off below: … GTCTTGATTCGCTTGACGCTGCTG
# Target sequence (chain): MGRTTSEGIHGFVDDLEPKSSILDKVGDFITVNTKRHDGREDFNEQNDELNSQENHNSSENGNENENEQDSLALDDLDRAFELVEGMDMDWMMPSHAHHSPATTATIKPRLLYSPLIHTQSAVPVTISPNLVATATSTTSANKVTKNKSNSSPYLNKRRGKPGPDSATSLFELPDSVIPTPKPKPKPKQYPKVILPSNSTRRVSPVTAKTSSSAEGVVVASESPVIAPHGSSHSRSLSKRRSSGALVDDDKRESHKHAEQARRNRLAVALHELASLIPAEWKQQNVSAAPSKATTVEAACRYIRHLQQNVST
Oligonucleotide,fluorescence intensity
GCTGAAGTTATTGACTCCGTGGGTAATAAGGTCTCA,4960 a.u.
CGGGGTTAAGTTTGTCACCTAACTTGCTTGCAGCAG,3470 a.u.
TTTTTCATGTAAGGCCACATGATTCAGACTTACATC,7600 a.u.
GCACCATTTGCCCATCACGTCCAACGGTAGTGGTCC,3970 a.u.
CGTCCTAGTGATTGTCACCAGACTTCCATGAGGAAG,3670 a.u.
ACCCGGGTGTCGTTATGCGTGATGGGCATCAATTTT,5610 a.u.
GCTAATGTAATATAATCCGTGATGGTTTAATGGTCA,4210 a.u.
GCAAGACCTAAAAAATTCGTGCCAGGGTTTGAGCTA,4320 a.u.
CATACCCAACCTTGGCACGTGGGTGAAGATATTTGT,19300 a.u.
CTTCTGTAAATTTGGCTTGTGGGTGGACGCGCCCCG,5220 a.u.
TATCAAATTTGCGGCCACGCAAGTAACTACGTAGGT,6730 a.u.
GCCAGTCGCCAATGCCACCTGATTCTCTGGTCGATT,3090 a.u.
TTAAGAGATAATCCGCACGTGATGGAATTCATTCTG,17500 a.u.
AAAGCGGTAATTTGTCACCGGACTTCACATATCTAT,2940 a.u.

# Series 7
# Target: Histone acetyltransferase KAT6A, winged helix 2, GST fusion (KAT6A, Homo sapiens, UniProt Q92794, residues 85-181)
# Method: protein binding microarray
# Form: double-stranded DNA, one strand shown
# Sample: in vitro
# Tested at: not given
# Notes: 8-mer, flanks averaged, mean of 2 arrays, mostly near background
# Baseline: not given
# Direction: higher = stronger binding
# Target sequence (chain): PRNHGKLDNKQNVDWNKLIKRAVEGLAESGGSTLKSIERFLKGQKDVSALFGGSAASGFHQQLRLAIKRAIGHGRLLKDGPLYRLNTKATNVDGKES
Oligonucleotide,E-score
TATTACAA,-0.048
GAGTACAA,0.12
GCTGAACC,0.125
TACTCCTA,-0.103
GGTGCCAA,0.121
AGAGGCAT,0.137
GCACACCC,-0.0836
AAAACAAC,-0.0574
AGGGTTCC,0.0886
CGGGCTCC,0.182
GAAATATA,0.0674
AGCATGAG,-0.0468
GCGCGACA,0.0884
ATCGTACC,-0.175
GGTTGACA,-0.0951
GGATACTA,0.0187
CATGGTGA,0.0253
ATGGAGCA,0.123
GGCTGCAA,0.0432
AGTCCCGC,0.0574
GGTCATCA,-0.1
AACATGAA,-0.123
AGGCAAAC,0.108
AGGATATC,-0.0917
TCTTGTAA,0.0206

# Series 8
# Target: Sal-like protein 4, full length isoform B (SALL4, Homo sapiens, UniProt Q9UJQ4-2, residues 1-616)
# Method: universal PBM
# Form: double-stranded DNA, one strand shown
# Sample: in vitro
# Tested at: not given
# Notes: 8-mer, flanks averaged, mean of replicates
# Direction: higher = stronger binding
Oligonucleotide,E-score
CTCAACTA,-0.0194
ATGCAACC,0.0892
CCAGGAGG,-0.288
GCCGTGTA,-0.0522
AATGAAAA,0.336
AACCGGTT,-0.118
CTTCAGCC,-0.192
CATCGTTA,0.102
AGCCAAGC,-0.242
CTATTACC,0.076
AATTTACC,0.196
CTTCCTGA,0.0282
CGCTAAGA,-0.2
CGAGCTCA,-0.211
